{"data": "Assay results collected from several papers", "organism": "Staphylococcus aureus", "note": "Lines come from different studies, so protocols differ."}
{"SMILES": "CC[C@H](C)[C@H](NC(=O)[C@H](Cc1c[nH]c2ccccc12)NC(=O)[C@@H](NC(=O)[C@H](Cc1ccccc1)NC(=O)[C@@H]1CCCN1C(=O)[C@@H](NC(=O)[C@H](C)N)[C@@H](C)CC)[C@@H](C)CC)C(=O)N[C@@H](Cc1ccccc1)C(=O)N[C@@H](CCCNC(=N)N)C(=O)N[C@@H](CC(C)C)C(=O)N[C@@H](CC(C)C)C(=O)N[C@@H](CCCNC(=N)N)C(=O)N[C@@H](CCCCN)C(=O)NCC(N)=O", "test": "broth microdilution", "system": "ATCC 6051", "setting": "18 h, 37 °C", "MIC": "1.88 µM"}
{"SMILES": "CC[C@H](C)[C@H](NC(=O)[C@H](CCCNC(=N)N)NC(=O)[C@H](CCCNC(=N)N)NC(=O)[C@H](CCCNC(=N)N)NC(=O)[C@H](CCCNC(=N)N)NC(=O)[C@H](CCCNC(=N)N)NC(=O)[C@@H](N)CCCNC(=N)N)C(=O)N[C@@H](CO)C(=O)N[C@@H](Cc1ccccc1)C(=O)N[C@@H](CC(C)C)C(=O)NCC(=O)N[C@@H](CO)C(=O)N[C@@H](CCCCN)C(=O)N[C@@H](CCCCN)C(=O)N[C@@H](CCCCN)C(=O)N[C@@H](CCCCN)C(=O)N[C@@H](CCCCN)C(=O)N[C@@H](CC(C)C)C(=O)N[C@@H](CC(C)C)C(=O)N[C@@H](CCCCN)C(=O)N[C@@H](CCCNC(=N)N)C(N)=O", "test": "broth microdilution", "setting": "24 h, 37 °C", "MIC": "64 µM"}
{"SMILES": "CC[C@H](C)[C@H](NC(=O)[C@H](CC(C)C)NC(=O)[C@H](CCCNC(=N)N)NC(=O)[C@@H](N)CCCNC(=N)N)C(=O)N[C@@H](CC(C)C)C(=O)N[C@H](C(=O)N[C@@H](CCCCN)C(=O)N[C@H](C(=O)NCC(=O)N1CCC[C@H]1C(=O)N[C@H](C(=O)N[C@H](C(=O)N[C@@H](Cc1ccc(O)cc1)C(=O)N[C@@H](CCCCN)C(=O)N[C@@H](Cc1ccc(O)cc1)C(=O)N[C@@H](Cc1ccccc1)C(=O)N[C@@H](CCCCN)C(=O)N[C@@H](CCCCN)C(=O)N[C@@H](CCC(N)=O)C(=O)N[C@@H](CC(C)C)C(=O)N[C@@H](CCCCN)C(=O)N[C@@H](CCCCN)C(=O)N[C@@H](CC(C)C)C(N)=O)[C@@H](C)CC)[C@@H](C)CC)[C@@H](C)O)[C@@H](C)O", "system": "CCARM 3090, methicillin-resistant, Mueller-Hinton broth", "setting": "24 h", "MIC": "64 µM"}
{"SMILES": "CCCCCCCNC(=O)CP(=O)(O)O", "system": "ATCC 33591 methicillin-resistant", "MIC": "> 200 µg/mL"}
{"SMILES": "COc1ccc2ccc(O)c(/C=N/[C@H]3CCCC[C@H]3/N=C/c3ccc(-c4ccccc4)cc3O)c2c1", "test": "bacterial growth, broth microdilution", "system": "vancomycin-intermediate", "MIC": "> 40 µM"}
{"SMILES": "CC[C@H](C)[C@H](N)C(=O)N[C@@H](CC(C)C)C(=O)NCC(=O)N[C@H](CCCNC(=N)N)C(=O)N[C@H](C(=O)N[C@@H](Cc1ccccc1)C(=O)N[C@@H](CCCCN)C(=O)NCC(=O)N[C@H](C(=O)N[C@@H](CCCCN)C(=O)N[C@@H](CC(=O)O)C(=O)N[C@H](C(=O)N[C@@H](CC(C)C)C(N)=O)[C@@H](C)CC)[C@@H](C)CC)[C@@H](C)CC", "test": "broth microdilution", "system": "MRSA ATCC 33591, Mueller-Hinton broth", "setting": "16 h, 37 °C", "MIC": "25 µM"}
{"SMILES": "CC[C@H](C)[C@H](NC(=O)[C@H](CO)NC(=O)CNC(=O)[C@H](CCCCN)NC(=O)[C@@H](NC(=O)[C@H](CC(N)=O)NC(=O)[C@H](Cc1ccccc1)NC(=O)[C@H](CC(N)=O)NC(=O)[C@@H](NC(=O)[C@H](CCCNC(=N)N)NC(=O)[C@@H]1CCCN1C(=O)[C@H](CCCNC(=N)N)NC(=O)[C@@H](NC(=O)[C@H](CCCNC(=N)N)NC(=O)[C@H](CCCNC(=N)N)NC(=O)[C@@H](NC(=O)[C@H](CCCNC(=N)N)NC(=O)[C@H](CO)NC(=O)[C@H](CC(C)C)NC(=O)[C@H](Cc1ccccc1)NC(=O)[C@H](CCCNC(=N)N)NC(=O)CNC(=O)[C@H](Cc1ccccc1)NC(=O)[C@H](CCCNC(=N)N)NC(=O)CNC(=O)[C@H](CCCNC(=N)N)NC(=O)[C@H](CCC(N)=O)NC(=O)[C@@H](NC(=O)[C@@H](N)CC(C)C)C(C)C)[C@@H](C)CC)[C@@H](C)CC)[C@@H](C)CC)[C@@H](C)CC)C(=O)O", "test": "broth microdilution", "system": "ATCC 29213, Mueller-Hinton broth", "setting": "16 to 20 h, 37 °C", "MIC": "2.49 µM"}
{"SMILES": "Cc1ccc2[nH]c3c(c2c1)CCCC3NCCc1ccc(Br)cc1 (stereo not shown)", "test": "broth microdilution", "system": "SA113", "MIC": "4 µg/mL"}
{"SMILES": "C/C(=C\\C(=O)OCCCCCCCC(=O)Nc1c2sscc-2[nH]c1=O)[C@@H](O)[C@@H]1OC[C@H](C/C=C/[C@@H](C)[C@H](C)O)[C@@H](O)[C@H]1O", "system": "MRSA COL, IleRS V588F mutant", "MIC": "0.04 µM"}
{"SMILES": "CCCCCCC#Cc1cncc(-c2nnc(SCc3ccc([N+](=O)[O-])cc3)n2CCCN)c1", "test": "broth microdilution", "system": "Mu50 MRSA VISA", "setting": "18 to 24 h, 37 °C", "MIC": "8 µg/mL"}
{"SMILES": "COC(=O)c1cc(-c2cccc(NC(=S)Nc3cc(C(F)(F)F)cc(C(F)(F)F)c3)c2)on1", "system": "ATCC 29213, CAMHB", "setting": "16 to 18 h", "MIC": "16 µg/mL"}
{"SMILES": "CCCCCCCCCC(=O)N[C@@H](Cc1c[nH]c2ccccc12)C(=O)N[C@H](CC(N)=O)C(=O)N[C@@H](CC(=O)O)C(=O)N[C@@H]1C(=O)NCC(=O)N[C@@H](CCCN)C(=O)N[C@@H](CC(=O)O)C(=O)N[C@H](C)C(=O)N[C@@H](CC(=O)O)C(=O)NCC(=O)N[C@H](CO)C(=O)N[C@@H]([C@H](C)CC(=O)O)C(=O)N[C@@H](CC(=O)c2ccccc2N)C(=O)O[C@@H]1C", "system": "CRB, PBP4 deletion", "MIC": "2 µg/mL"}
{"SMILES": "CC[C@H](C)[C@H](NC(=O)[C@H](CC(C)C)NC(=O)[C@H](CCCNC(=N)N)NC(=O)[C@@H](N)CCCNC(=N)N)C(=O)N[C@@H](CCCNC(=N)N)C(=O)N[C@@H](CCCCN)C(=O)N[C@@H](CC(C)C)C(=O)N[C@@H](CCCCN)C(=O)NCC(=O)N[C@@H](CC(C)C)C(=O)N[C@@H](CCCCN)C(=O)N[C@@H](CCCCN)C(=O)N[C@@H](Cc1ccc(O)cc1)C(=O)N[C@@H](CC(C)C)C(=O)N[C@@H](Cc1ccc(O)cc1)C(=O)N[C@@H](Cc1ccccc1)C(=O)N[C@@H](CCCCN)C(=O)N[C@@H](CC(C)C)C(=O)N[C@@H](CCC(N)=O)C(=O)N[C@@H](CC(C)C)C(=O)N[C@@H](CC(C)C)C(=O)N[C@@H](CCCCN)C(=O)N[C@@H](CCCCN)C(N)=O", "system": "KCTC 1621, Mueller-Hinton broth", "setting": "added: 4.5 mM KCl", "MIC": "8 µM"}
{"note": "A few entries again:"}
{"SMILES": "CC[C@H](C)[C@H](NC(=O)[C@H](CC(C)C)NC(=O)[C@H](CCCNC(=N)N)NC(=O)[C@@H](N)CCCNC(=N)N)C(=O)N[C@@H](CC(C)C)C(=O)N[C@H](C(=O)N[C@@H](CCCCN)C(=O)N[C@H](C(=O)NCC(=O)N1CCC[C@H]1C(=O)N[C@H](C(=O)N[C@H](C(=O)N[C@@H](Cc1ccc(O)cc1)C(=O)N[C@@H](CCCCN)C(=O)N[C@@H](Cc1ccc(O)cc1)C(=O)N[C@@H](Cc1ccccc1)C(=O)N[C@@H](CCCCN)C(=O)N[C@@H](CCCCN)C(=O)N[C@@H](CCC(N)=O)C(=O)N[C@@H](CC(C)C)C(=O)N[C@@H](CCCCN)C(=O)N[C@@H](CCCCN)C(=O)N[C@@H](CC(C)C)C(N)=O)[C@@H](C)CC)[C@@H](C)CC)[C@@H](C)O)[C@@H](C)O", "system": "CCARM 3090, methicillin-resistant, Mueller-Hinton broth", "setting": "24 h", "MIC": "64 µM"}
